Assay results gathered from unrelated publications.
Protocols differ between the studies behind these lines.
Technique: steady-state kinetics
B1: 3-hydroxypropionyl-CoA dehydratase (Metallosphaera sedula, UniProt A4YI89); chain MEFETIETKKEGNLFWITLNRPDKLNALNAKLLEELDRAVSQAESDPEIRVIIITGKGKAFCAGADITQFNQLTPAEAWKFSKKGREIMDKIEALSKPTIAMINGYALGGGLELALACDIRIAAEEAQLGLPEINLGIYPGYGGTQRLTRVIGKGRALEMMMTGDRIPGKDAEKYGLVNRVVPLANLEQETRKLAEKIAKKSPISLALIKEVVNRGLDSPLLSGLALESVGWGVVFSTEDKKEGVSAFLEKREPTFKGK
B2: enzyme S146A (Schizosaccharomyces pombe, UniProt Q9Y7P0); chain MFTGLVEAIGVVKDVQGTIDNGFAMKIEAPQILDDCHTGDSIAVNGTCLTVTDFDRYHFTVGIAPESLRLTNLGQCKAGDPVNLERAVLSSTRMGGHFVQGHVDTVAEIVEKKQDGEAIDFTFRPRDPFVLKYIVYKGYIALDGTALTITHVDDSTFSIMMISYTQSKVIMAKKNVGDLVNVEVDQIGKYTEKLVEAHIADWIKKTQA
B3: CMBL (Homo sapiens, UniProt Q96DG6); chain MANEAYPCPCDIGHRLEYGGLGREVQVEHIKAYVTKSPVDAGKAVIVIQDIFGWQLPNTRYIADMISGNGYTTIVPDFFVGQEPWDPSGDWSIFPEWLKTRNAQKIDREISAILKYLKQQCHAQKIGIVGFCWGGTAVHHLMMKYSEFRAGVSVYGIVKDSEDIYNLKNPTLFIFAENDVVIPLKDVSLLTQKLKEHCKVEYQIKTFSGQTHGFVHRKREDCSPADKPYIDEARRNLIEWLNKYM
B4: enzyme D382A (Arabidopsis thaliana, UniProt O82390); chain MNARALLCSSNIHSLYTSNRPPEKTSSSRSLRNLKPSPKSLRVWIYPRNRSSVFRVLVRSSDKSESSNSYYVEGDKVSGNNDVVSDSPSSIVLPWWEEFPKRWVIVLLCFSAFLLCNMDRVNMSIAILPMSAEYGWNPATVGLIQSSFFWGYLLTQIAGGIWADTVGGKRVLGFGVIWWSIATILTPVAAKLGLPYLLVVRAFMGVGEGVAMPAMNNILSKWVPVQERSRSLALVYSGMYLGSVTGLAFSPFLIHQFGWPSVFYSFGSLGTVWLTLWLTKAESSPLEDPTLLPEERKLIADNCASKEPVKSIPWRLILSKPPVWALISCHFCHNWGTFILLTWMPTYYHQVLKFNLMESGLLSVFPWMTMAISANAGGWIAATLVSRGFSVTNVRKIMQTIGFLGPAFFLTQLKHIDSPTMAVLCMACSQGTDAFSQSGLYSNHQDIAPRYSGVLLGLSNTAGVLAGVLGTAATGHILQHGSWDDVFTISVGLYLVGTVIWNLFSTGEKIID
B5: enzyme (Halalkalibacterium halodurans, UniProt Q9KCN8); chain MLNVTQLQEATTFIQQQIETKPTIGLILGSGLGILADEIEQPVKVPYSDIPHFPVSTVQGHAGQLVIGMLEGKQVIAMQGRFHFYEGYSLEVVTFPVRVMKALGVEQIIVTNAAGGVNESFEAGDLMIIRDHINNMAQNPLIGPNDEAFGVRFPDMSNAYSERLRTLAKEKGNTLNLKLQEGVYVANTGPVYETPAEVRMIRKLGGDAVGMSTVPEVIVARHAGLEVLGISCISNMAAGILPQPLSHDEVIETTERVRQDFLNLVKAIVKDM
B6: HCT R356E (Coleus scutellarioides, UniProt E8ZAP2); chain MKIHVRDSTLVRPSAATPAVSLWNSNVDLVVPNFHTPSVYFYRPSGADNFFDTAVMKAALGRALVSFYPMAGRLKRDEDGRVEIDCNAEGVLFVEAESDGTVDDYGDFAPSLELRRLIPAVDYSQGISAYPLLVLQVTFFKCGGVSLGVGMQHHAADGFSGLHFINTWSDMARGLDITLPPFIDRTLLSARDPPQPQFKHVEYQPPPAMKTYEPAETVVSIFKLTKDQLTTLKAKSKEDGNTTTYSSYEMLSGHVWRCTCLARGLPEEQETKLYIATDGRSRLQPQLPPGYFGNVIFTATPLAVAGDLGSKPVWYAASKIHDALARMDNDYLRSALDFLELQPDLKALVRGAHTFECPNLGITSWVRLPIHDADFGWGRPIFMGPGGIAYEGLSFVLPSPTNDGSLSVAISLQAEHMKLFEKLLYQI
B7: protein (UniProt A0A4Y6I1F8); chain MGSEVVSKKHEFGALEVEGIDFRASVAALGSTKKLVLGGAGFRGLEINGNLVKFTAIGIYVEEAIIPHLSPKLGGKTVEELCANELLFEEVLSAPFDKLIRVVFLLPLTGPQYSEKVVERIGLLPNPGLKEESIKQFLEIFKAENFPPRTSLVCSFTEDGLKIAFMKGPDFPEESDAVIEDKYFARAFLATIIAKDGVSPMAKLSFAERVSKYL
B8: CYP2C19 (Homo sapiens, UniProt P33261); chain MDPFVVLVLCLSCLLLLSIWRQSSGRGKLPPGPTPLPVIGNILQIDIKDVSKSLTNLSKIYGPVFTLYFGLERMVVLHGYEVVKEALIDLGEEFSGRGHFPLAERANRGFGIVFSNGKRWKEIRRFSLMTLRNFGMGKRSIEDRVQEEARCLVEELRKTKASPCDPTFILGCAPCNVICSIIFQKRFDYKDQQFLNLMEKLNENIRIVSTPWIQICNNFPTIIDYFPGTHNKLLKNLAFMESDILEKVKEHQESMDINNPRDFIDCFLIKMEKEKQNQQSEFTIENLVITAADLLGAGTETTSTTLRYALLLLLKHPEVTAKVQEEIERVIGRNRSPCMQDRGHMPYTDAVVHEVQRYIDLIPTSLPHAVTCDVKFRNYLIPKGTTILTSLTSVLHDNKEFPNPEMFDPRHFLDEGGNFKKSNYFMPFSAGKRICVGEGLARMELFLFLTFILQNFNLKSLIDPKDLDTTPVVNGFASVPPFYQLCFIPV
B9: HEM1 (Saccharomyces cerevisiae, UniProt P09950); chain AAAAANHSTQESGFDYEGLIDSELQKKRLDKSYRYFNNINRLAKEFPLAHRQREADKVTVWCSNDYLALSKHPEVLDAMHKTIDKYGCGAGGTRNIAGHNIPTLNLEAELATLHKKEGALVFSSCYVANDAVLSLLGQKMKDLVIFSDELNHASMIVGIKHANVKKHIFKHNDLNELEQLLQSYPKSVPKLIAFESVYSMAGSVADIEKICDLADKYGALTFLDEVHAVGLYGPHGAGVAEHCDFESHRASGIATPKTNDKGGAKTVMDRVDMITGTLGKSFGSVGGYVAASRKLIDWFRSFAPGFIFTTTLPPSVMAGATAAIRYQRCHIDLRTSQQKHTMYVKKAFHELGIPVIPNPSHIVPVLIGNADLAKQASDILINKHQIYVQAINFPTVARGTERLRITPTPGHTNDLSDILINAVDDVFNELQLPRVRDWESQGGLLGVGESGFVEESNLWTSSQLSLTNDDLNPNVRDPIVKQLEVSSGIKQ
B10: enzyme (Tanacetum cinerariifolium, UniProt H6U1I8); chain SQQAAALFIFGDSVFDPGNNNHINTHVNFKANFWPYGQSYFSSPTGRFSDGRIIPDFIAEYASLPIIPAYLEPNNDFTHGANFASAGAGALIASHAGLAVGLQTQLRYFGDLVDHYRQNLGDIKSRQLLSDAVYLFSCGGNDYQSPYYPYTQEQYVDIVIGNMTNVIKGIYEKGGRKFGVVNVPLIGCWPGMRAKQPGNTCNTEVDELTRLHNQAFAKRLEQLEKQLEGFVYAKFDLSTAILNRMKNPSKYGFKEGESACCGSGPFGGNYDCGRIKEFGLCDNATEYFFFDPFHPNELASRQFAEMFWDGDSMVTQPYNLKALFEGKPSTKYLPNDEL
B11: UGT1A9 (Homo sapiens, UniProt O60656); chain GKLLVVPMDGSHWFTMRSVVEKLILRGHEVVVVMPEVSWQLGRSLNCTVKTYSTSYTLEDLDREFKAFAHAQWKAQVRSIYSLLMGSYNDIFDLFFSNCRSLFKDKKLVEYLKESSFDAVFLDPFDNCGLIVAKYFSLPSVVFARGILCHYLEEGAQCPAPLSYVPRILLGFSDAMTFKERVRNHIMHLEEHLLCHRFFKNALEIASEILQTPVTEYDLYSHTSIWLLRTDFVLDYPKPVMPNMIFIGGINCHQGKPLPMEFEAYINASGEHGIVVFSLGSMVSEIPEKKAMAIADALGKIPQTVLWRYTGTRPSNLANNTILVKWLPQNDLLGHPMTRAFITHAGSHGVYESICNGVPMVMMPLFGDQMDNAKRMETKGAGVTLNVLEMTSEDLENALKAVINDKSYKENIMRLSSLHKDRPVEPLDLAVFWVEFVMRHKGAPHLRPAAHDLTWYQYHSLDVIGFLLAVVLTVAFITFKCCAYGYRKCLGKKGRVKKAHKSKTH
Sequence of UniProt Q949Q0 (whole entry, looked up): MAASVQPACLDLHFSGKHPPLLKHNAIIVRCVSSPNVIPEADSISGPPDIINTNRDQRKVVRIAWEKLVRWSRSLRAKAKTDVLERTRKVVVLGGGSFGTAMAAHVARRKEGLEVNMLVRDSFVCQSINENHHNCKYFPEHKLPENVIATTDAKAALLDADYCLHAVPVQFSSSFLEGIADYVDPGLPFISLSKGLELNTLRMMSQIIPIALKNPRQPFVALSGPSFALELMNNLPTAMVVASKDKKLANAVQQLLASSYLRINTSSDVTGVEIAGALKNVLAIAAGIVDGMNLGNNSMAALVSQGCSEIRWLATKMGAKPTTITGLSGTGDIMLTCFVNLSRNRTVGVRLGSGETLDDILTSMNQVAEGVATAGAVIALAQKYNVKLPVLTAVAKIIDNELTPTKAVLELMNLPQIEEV
Sequence of UniProt Q01740 (whole entry, looked up): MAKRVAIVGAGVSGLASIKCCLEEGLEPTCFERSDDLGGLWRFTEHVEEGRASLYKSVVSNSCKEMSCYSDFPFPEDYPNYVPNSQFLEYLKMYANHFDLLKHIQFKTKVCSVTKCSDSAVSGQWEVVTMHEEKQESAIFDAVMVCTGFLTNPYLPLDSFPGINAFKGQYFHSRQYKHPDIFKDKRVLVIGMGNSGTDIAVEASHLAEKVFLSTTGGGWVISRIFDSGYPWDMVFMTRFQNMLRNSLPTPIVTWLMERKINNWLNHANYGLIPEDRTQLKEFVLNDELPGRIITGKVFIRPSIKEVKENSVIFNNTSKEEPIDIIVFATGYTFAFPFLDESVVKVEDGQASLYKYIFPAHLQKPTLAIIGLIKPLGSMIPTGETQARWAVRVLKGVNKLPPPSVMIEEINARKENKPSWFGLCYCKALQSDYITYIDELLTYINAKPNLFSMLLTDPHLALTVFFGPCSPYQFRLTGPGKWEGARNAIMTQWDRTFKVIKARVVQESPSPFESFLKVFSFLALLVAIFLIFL

`B1` gave a Vmax of 272 µmol/min/mg (CC(C)(COP(=O)(O)OP(=O)(O)OC[C@H]1O[C@@H](n2cnc3c(N)ncnc32)[C@H](O)[C@@H]1OP(=O)(O)O)[C@@H](O)C(=O)NCCC(=O)NCCSC(=O)CCO; pH 6.5, 65 °C, substrate made in situ, together with: ATP, CoA, NADPH).
`B2 (enzyme S146A)` has a Vmax of 0.183 µmol/min/mg (Cc1nc2c(=O)[nH]c(=O)nc-2n(C[C@H](O)[C@H](O)[C@H](O)CO)c1C; pH 7.2, 37 °C, apparent).
With `enzyme (Vitis vinifera, UniProt F6H697)` the Vmax was 0.207 µmol/min/mg (O=C(O)Cc1c[nH]c2ccccc12; pH 8.6, 25 °C).
`B3 (CMBL)` gave a Vmax of 0.004 µmol/min/mg (Cc1oc(=O)oc1COC(=O)[C@@H]1N2C(=O)[C@@H](NC(=O)[C@H](N)c3ccccc3)[C@H]2SC1(C)C; lysate; pH 7.4, 37 °C, not purified).
The Vmax of `FMO1 (Homo sapiens, UniProt Q01740)` is reported as 1.1e-05 µmol/min/mg (CN1CCC[C@H]1c1cccnc1; HEK293 microsomes; 37 °C, not purified, together with: NADPH regenerating system).
With `B4 (enzyme D382A)` the Vmax was 0.0026 µmol/min/mg (O=P(O)(O)O; pH 6.5, 25 °C, apparent, not purified).
The Vmax of `enzyme (Arabidopsis thaliana, UniProt Q949Q0)` is reported as 49.2 µmol/min/mg (O=C(CO)COP(=O)(O)O; pH 7.2, 30 °C, apparent).
`B5 (enzyme)` gave a Vmax of 286 µmol/min (OC[C@H]1O[C@@H](n2cnc3c(O)ncnc32)[C@H](O)[C@@H]1O).
The Vmax of `B6 (HCT R356E)` is reported as 1.29 µmol/min/mg (NCCc1ccc(O)c(O)c1; pH 8, pseudo-first-order, together with: p-coumaroyl CoA).
For `B7 (protein)`, the Vmax was 214 µmol/min/mg (O=C(/C=C/c1ccc(O)cc1)c1c(O)cc(O)cc1O).
The Vmax of `B8 (CYP2C19)` is reported as 0.000143 µmol/min/mg (COc1cc2c(cc1CC=C(C)C)C(=O)C[C@@H](c1ccc(O)cc1)O2; pH 7.4, 37 °C).
For `B9 (HEM1)`, the Vmax was 0.121 µmol/min/mg (CC(C)(COP(=O)(O)OP(=O)(O)OC[C@H]1O[C@@H](n2cnc3c(N)ncnc32)[C@H](O)[C@@H]1OP(=O)(O)O)[C@@H](O)C(=O)NCCC(=O)NCCSC(=O)CCC(=O)O; pH 7.4, 30 °C).
For `B10 (enzyme)`, the Vmax was 0.154 µmol/min/mg (C=C/C=C\CC1=C(C)[C@@H](O)CC1=O; pH 7.5, 25 °C).
`B11 (UGT1A9)` has a Vmax of 0.006 µmol/min/mg (Cc1ccc2oc(-c3ccc4c(c3)OCO4)c(O)c(=O)c2c1; pH 7.4, 37 °C).
